Experimental data of several laboratories.
Every numbered part comes from another study and shows a few of its results, in no order. Positions count from the first letter of the parent shown.

Block 1 — technique: aptamer microarray, sandwich; molecule type: DNA with 2'F-ANA; medium: in vitro; concentration: 200 nM; added: Cy3 exosite-II aptamer, 400 nM; direction: higher = stronger binding; strand: GGTTGGTGTGGTTGG
Target: Prothrombin, mature alpha-thrombin (F2, Homo sapiens, UniProt P00734)
Setting: whole 15-mer aptamer, many near background
For `2'F-ANA at 1 7 8 9 10 12 13`, “mean fluorescence intensity” read 69.4 a.u.
`2'F-ANA at 1 2 3 5 7 8 10 12 13 14` — result for “mean fluorescence intensity”: 69.3 a.u.
`2'F-ANA at 1 3 4 6 8 10 14`: “mean fluorescence intensity” 56.3 a.u.
Under “mean fluorescence intensity”, `2'F-ANA at 3 5 7 8 9 11 13 14` is recorded as 61.1 a.u.
`2'F-ANA at 1 3 6 8 9 10 13 15`: “mean fluorescence intensity” 89.1 a.u.
For `2'F-ANA at 2 3 4 10 12 15`, “mean fluorescence intensity” read 321 a.u.
For `2'F-ANA at 1 2 4 5 7 8 9 12 13 14 15`, “mean fluorescence intensity” read 49.3 a.u.
For `2'F-ANA at 7 9 10 12 14 15`, “mean fluorescence intensity” read 112 a.u.

Block 2 — technique: RNA Bind-n-Seq; molecule type: RNA; medium: in vitro; concentration: 200 nM; setting: whole 134-nt RNA, ends assumed; added: 150 mM KCl; baseline: input library; direction: higher = stronger binding
Target: Fragile X messenger ribonucleoprotein 1, C-terminal low-complexity region (Fmr1, Mus musculus, UniProt P35922)
With `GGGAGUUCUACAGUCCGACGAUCGUCCUGUGCUACACAUCGUAUGUACCGAAUCGGGUUUUUUGGGUUUUUUGGUUUUUUGGAAAGUAUUAUGUUACGCCGUUCGGAUCUGCAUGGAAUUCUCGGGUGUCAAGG` the log2 enrichment was -0.654.
With `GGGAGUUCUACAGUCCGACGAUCCUGUGCUACACAUCGUAUGUACCGAAUCAAAUUUUUUUAAAUUUUUUUAAAUUUUUUUAAAAAAGUAUUAUGUUACGCCGUUCGGAUCUGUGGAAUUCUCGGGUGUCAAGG` the log2 enrichment was -1.63.
`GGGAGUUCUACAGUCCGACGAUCAAGUCCUGUGCUACACAUCGUAUGUACCGAAUCGGGAGGGAAAGGGAAAAAAAGGGAAAGUAUUAUGUUACGCCGUUCGGAUCUGCACUUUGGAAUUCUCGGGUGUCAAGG` has a log2 enrichment of 0.13.
The log2 enrichment of `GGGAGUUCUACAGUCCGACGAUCCACAGACAACACGCACCCACACAGACACAGAGGGAAGGGGUUGGGAUGGGGACAGGGUGCACAGCAGGGCGGGGUAGGAGCCCAGCCCCUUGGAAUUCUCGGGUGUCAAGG` is reported as 1.2.
`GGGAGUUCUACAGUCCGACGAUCUCAAGUCCUGUGCUACACAUCGUAUGUACCGAAUCGGGUUUGGGAGGGUUUGGGAAAGUAUUAUGUUACGCCGUUCGGAUCUGCACUUCCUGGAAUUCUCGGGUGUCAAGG` has a log2 enrichment of 1.24.
`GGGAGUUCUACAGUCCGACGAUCUGGGAGGUGGAUUUUGUUUAUUUUUUUAGCUCAUUUCCAGGGGUGGGCAUUUUUUUUUAAUAUGUGUCAUGAAUAAAGUUGUUUUUGAAAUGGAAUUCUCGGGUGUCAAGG` gave a log2 enrichment of 0.265.
The log2 enrichment of `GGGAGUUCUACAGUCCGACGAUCCUCAAGUCCUGUGCUACACAUCGUAUGUACCGAAUCGGGAAGGGGAAGGAAGGGAAAGUAUUAUGUUACGCCGUUCGGAUCUGCACUUCCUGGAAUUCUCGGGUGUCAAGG` is reported as -0.0802.
The log2 enrichment of `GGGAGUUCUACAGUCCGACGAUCAGUCCUGUGCUACACAUCGUAUGUACCGAAUCAAAUUUUUAAACCCAAACCCCCAAAAAAGUAUUAUGUUACGCCGUUCGGAUCUGCACUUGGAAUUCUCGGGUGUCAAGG` is reported as -0.297.

Further values, each from its own experiment
P1: viral docking peptide; KKAKRRLFTISDS; partner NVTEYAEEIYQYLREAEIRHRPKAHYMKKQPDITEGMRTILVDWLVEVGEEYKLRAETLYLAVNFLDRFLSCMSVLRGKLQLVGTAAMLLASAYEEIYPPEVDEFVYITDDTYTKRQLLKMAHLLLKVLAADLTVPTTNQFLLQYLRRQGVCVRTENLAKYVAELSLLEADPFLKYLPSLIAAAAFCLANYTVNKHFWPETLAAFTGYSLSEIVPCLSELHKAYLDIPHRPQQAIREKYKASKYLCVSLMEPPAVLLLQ
For `GPD2 (Homo sapiens, UniProt P43304)`, cross-linked residues read “E426 to K102” (IMMT (Homo sapiens, UniProt Q16891); cross-linking MS; cell fractions; added: DMTMM).
`P1 K4A` — result for “normalised enrichment score”: 0.407 (CCNA1, cyclin fold, Cln2 fusion (human); yeast growth competition, sequencing; yeast; weak parent motif; baseline: not given, higher = stronger binding).
`TMED2 (Homo sapiens, UniProt Q15363)`: interaction screen “cross-linked” (TMED4 (Homo sapiens, UniProt Q7Z7H5); cross-linking MS; hits only).
Under interaction screen, `BCAP31 (Homo sapiens, UniProt P51572)` is recorded as “cross-linked” (BCAP29 (Homo sapiens, UniProt Q9UHQ4); cross-linking MS; hits only).
`EPB41 (Homo sapiens, UniProt P11171)`: cross-linked residues “K639 to S317” (CCT8 (Homo sapiens, UniProt P50990); cross-linking MS; cell fractions; added: DSSO).

Excerpt of the above (further values, each from its own experiment):
Under interaction screen, `BCAP31 (Homo sapiens, UniProt P51572)` is recorded as “cross-linked” (BCAP29 (Homo sapiens, UniProt Q9UHQ4); cross-linking MS; hits only).
`TMED2 (Homo sapiens, UniProt Q15363)`: interaction screen “cross-linked” (TMED4 (Homo sapiens, UniProt Q7Z7H5); cross-linking MS; hits only).
